Measured values from different studies.
Lines come from different studies, so protocols differ. ± gives the spread as reported.
MYB52 full length assumed: MYB52 full length assumed (Arabidopsis thaliana, UniProt Q6R0C4)
alkB full length assumed: alkB full length assumed (Escherichia coli, UniProt P05050)
B1: UGT1A9 (Homo sapiens, UniProt O60656); chain GKLLVVPMDGSHWFTMRSVVEKLILRGHEVVVVMPEVSWQLGRSLNCTVKTYSTSYTLEDLDREFKAFAHAQWKAQVRSIYSLLMGSYNDIFDLFFSNCRSLFKDKKLVEYLKESSFDAVFLDPFDNCGLIVAKYFSLPSVVFARGILCHYLEEGAQCPAPLSYVPRILLGFSDAMTFKERVRNHIMHLEEHLLCHRFFKNALEIASEILQTPVTEYDLYSHTSIWLLRTDFVLDYPKPVMPNMIFIGGINCHQGKPLPMEFEAYINASGEHGIVVFSLGSMVSEIPEKKAMAIADALGKIPQTVLWRYTGTRPSNLANNTILVKWLPQNDLLGHPMTRAFITHAGSHGVYESICNGVPMVMMPLFGDQMDNAKRMETKGAGVTLNVLEMTSEDLENALKAVINDKSYKENIMRLSSLHKDRPVEPLDLAVFWVEFVMRHKGAPHLRPAAHDLTWYQYHSLDVIGFLLAVVLTVAFITFKCCAYGYRKCLGKKGRVKKAHKSKTH

B1 (UGT1A9) — Vmax (COc1ccc2c(=O)c(O)c(-c3ccccc3)oc2c1; steady-state kinetics; pH 7.4, 37 °C): 0.01 µmol/min/mg
CCGGTCGTACGGAAAACCTGTATTTTCAGGGCTCCGG (dsDNA) — Kd (POLG fragment (Homo sapiens); EMSA; double-stranded DNA, one strand shown): 124 nM
GAGUUGAGUUGAGUUGAGUUGAGUUGAGUUGAGUUGAGUUGAGUUGAGUUGAGUU (ssRNA; single strand) — Kd (mtrB full length assumed T30V/K56A (Bacillus subtilis, UniProt P19466); filter binding; added: L-tryptophan 1 mM): 360 ± 24 nM
GAACCTTTTTTTAGTGGTTATAGTTAAGAACAACCTATATATAGTTCTTTTTTATTCAGTAAAAAAAACAGTCATAAGAAGTACTACT (dsDNA) — binding (MYB52 full length assumed; EMSA; double-stranded DNA, one strand shown): binds
CGGTAAACTGCGTCCGAAGGGGCNTGCAGTGANCCCGAATGGGTCCG (XNA; Ds at 24 and 33, four stems, GAAG/GAAT loops) — Kd (VEGFA fragment (Homo sapiens); SPR): 0.0075 nM
AGAAATTGGTACTGTATGAAACGGCAGCTGCACGTCGCG (ssDNA) — Kd (alkB full length assumed; NECEEM): 426 ± 88 nM
ATTTATATAATATAAATTAATATTAATATTGCCCCTGATTATTTAATATAATTATAAAGCTAG / GCTTTATAATTATATTAAATAATCAGGGGCAATATTAATATTAATTTATATTATATAAATGCA (dsDNA; 3' overhangs) — Kd (MSN2 1-704 (Saccharomyces cerevisiae, UniProt P33748); optical tweezers unzipping; pH 8.0, KCl 150 mM): 15.8 ± 2.6 nM
GGAGACCACAUCGAUUCAAUCGAAAUGAGAGCCAAGUGGAGAAAGAAGAGAACUAGAAGACUUAAGAGAAAGAGACGGAAGGUGAGAGCCAGAUCCAAAUAAGCGGAUUAUGAGUAAAUAACUCUAAUUUUGUUUUAAAUUCUUUCAAGAGUAUCGUAAUGUCAUUGAUGAAUUAACAUGUUAGUUUCUAUUCUACCUCAUAAUGGAUCUAAAUUGCAUACUAAUCUCACGGUGGGGUGUAAACCAUUGCCUACUAUUUAUAUAGUGCUUUAUAUAUGUCUCACAUAGUUUAAUCAAUUGUCCGUUUUUUUGAAAAAAAAAAAAAAAAAAAAAAAAAAAAAA / ACATGTTAATTCATCAATGAC (DNA/mRNA hybrid (Saccharomyces cerevisiae); 5' m7G cap, DNA oligo annealed mid-mRNA) — Kd (eIF4G/eIF4E S502C, Cy5 label (Saccharomyces cerevisiae); single-molecule FRET; from koff/kon, upper limit): 0.016 ± 0.001 nM
UUAGGGUUAGGGUUAGGGUUAGGGUUAGGGUUAGGGUUAGGGUUAGGGUUAGGGUUAGGG (ssRNA) — Kd (SUV39H1 N-terminal fragment, chromodomain (Homo sapiens, UniProt O43463); EMSA; Mg2+ 2 mM): 80 nM
ACAAAGCAAGTGTAACTGTGTAATTATAACATTGGTACACGCACGGGAAAAAACACAGCTAGCAAATTGAAACGT (dsDNA) — binding (MYB52 full length assumed; EMSA; double-stranded DNA, one strand shown): binds
LIYWAST — inhibition (peptide, human polyclonal IgM RF LOP; concentration not given, 5 µg/mL mAb II-481 coated, added: RF at 50% max binding concentration): 8%
GGTGGTGGTAAGATGATGAAGAGAACAGTC / CGCCACACTTCCTTCTCTCTCTCCTCTCCGACGCACTGTTCTCTTCATCATCTTACCACCACC (dsDNA; 5' overhang 33 nt, amino-C6-dT, 3' mismatch) — Kd (xthA full length assumed D151N/W212A (Escherichia coli, UniProt P09030); smFRET; added: MgCl2 1 mM): 0.58 nM
CGCTAGGATCNGGCCCCGCC / GGCGGGGCCGGATCCTAGCG (dsDNA; blunt, tetrahydrofuran abasic site opposite G) — Kd (TDG full length assumed (Homo sapiens, UniProt Q13569); EMSA; apparent, one-site fit): 21 nM
TGCCTAGCGTTTCATTGTCCCTTCTTATTAGGTGATAATA (ssDNA) — Kd (alkB full length assumed; NECEEM): 27.5 ± 2.5 nM
CIKVAVS — inhibition (peptide, human polyclonal IgM RF LOP; concentration not given, 5 µg/mL mAb II-481 coated, added: RF at 50% max binding concentration): 0%

For quick reference, copied from above:
GAGUUGAGUUGAGUUGAGUUGAGUUGAGUUGAGUUGAGUUGAGUUGAGUUGAGUU (ssRNA; single strand) — Kd (mtrB full length assumed T30V/K56A (Bacillus subtilis, UniProt P19466); filter binding; added: L-tryptophan 1 mM): 360 ± 24 nM
GAACCTTTTTTTAGTGGTTATAGTTAAGAACAACCTATATATAGTTCTTTTTTATTCAGTAAAAAAAACAGTCATAAGAAGTACTACT (dsDNA) — binding (MYB52 full length assumed; EMSA; double-stranded DNA, one strand shown): binds
